Measured values collected from several papers.
Every numbered part comes from another study and shows a few of its results, in no order.

Block 1
Target: Centromere-binding protein 1, full length, His-tagged (CBF1, Saccharomyces cerevisiae, UniProt P17106, residues 1-351)
Sequence of UniProt P17106 (whole entry, looked up): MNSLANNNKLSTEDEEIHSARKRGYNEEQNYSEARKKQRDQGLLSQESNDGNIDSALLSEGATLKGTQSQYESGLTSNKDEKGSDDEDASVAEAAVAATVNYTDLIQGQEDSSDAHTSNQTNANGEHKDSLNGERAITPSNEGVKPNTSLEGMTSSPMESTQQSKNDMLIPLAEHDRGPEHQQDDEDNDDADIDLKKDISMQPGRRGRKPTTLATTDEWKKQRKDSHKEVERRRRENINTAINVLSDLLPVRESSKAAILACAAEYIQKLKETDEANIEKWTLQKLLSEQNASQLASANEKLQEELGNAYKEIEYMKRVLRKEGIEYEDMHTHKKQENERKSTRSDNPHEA
Technique: competition protein-binding microarray
Form: double-stranded DNA, one strand shown
Medium: in vitro
Concentration: 2 µM
Notes: whole 60-bp probe, lowest competitor level
Together with: Pho4 competitor, 0.05 µM
Reading: higher = stronger binding
Shared flanks, not repeated: … GTCTTGATTCGCTTGACGCTGCTG
Strand | fluorescence intensity
TGGGTATCTGCTTGTCAGGTGCAGGCCCAACTATCT | 144 a.u.
TGCGCAACAACTTGCTTAGTGGGTGTATGTCTAGAA | 64.9 a.u.
GAGCGGGATTCCCATCACGTGGTGATGGGATAATGC | 3520 a.u.
TGCGCAACAACTTTTCACGTGGCCTTATGTCTAGAA | 789 a.u.
CCGGTAACCTACCGTCACGGCCAGATTTTTTCCAAG | 75.4 a.u.

Block 2
Target: Histone acetyltransferase KAT6A, winged helix 2, GST fusion (KAT6A, Homo sapiens, UniProt Q92794, residues 85-181)
Technique: protein binding microarray
Form: double-stranded DNA, one strand shown
Medium: in vitro
Concentration: not given
Notes: 8-mer, flanks averaged, mean of 2 arrays, mostly near background
Baseline: not given
Reading: higher = stronger binding
Construct (chain): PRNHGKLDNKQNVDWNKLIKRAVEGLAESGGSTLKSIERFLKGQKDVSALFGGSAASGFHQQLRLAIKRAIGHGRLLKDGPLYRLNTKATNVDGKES
Strand | E-score
CTAACTCC | -0.0975
ACCTGAGA | 0.0186
CAACTACC | -0.127
ACGGTCGG | -0.0294
CAGTCTGG | -0.0208
ACATACGG | -0.166
AAAACGTT | -0.234
CCAAACTA | -0.117
CTAGCGAA | 0.00796
AAAATCTT | -0.00549
CGCGTCAG | 0.0187

Block 3
Target: Sal-like protein 4, full length isoform A (SALL4, Homo sapiens, UniProt Q9UJQ4, residues 1-1053)
Sequence of UniProt Q9UJQ4 (whole entry, looked up): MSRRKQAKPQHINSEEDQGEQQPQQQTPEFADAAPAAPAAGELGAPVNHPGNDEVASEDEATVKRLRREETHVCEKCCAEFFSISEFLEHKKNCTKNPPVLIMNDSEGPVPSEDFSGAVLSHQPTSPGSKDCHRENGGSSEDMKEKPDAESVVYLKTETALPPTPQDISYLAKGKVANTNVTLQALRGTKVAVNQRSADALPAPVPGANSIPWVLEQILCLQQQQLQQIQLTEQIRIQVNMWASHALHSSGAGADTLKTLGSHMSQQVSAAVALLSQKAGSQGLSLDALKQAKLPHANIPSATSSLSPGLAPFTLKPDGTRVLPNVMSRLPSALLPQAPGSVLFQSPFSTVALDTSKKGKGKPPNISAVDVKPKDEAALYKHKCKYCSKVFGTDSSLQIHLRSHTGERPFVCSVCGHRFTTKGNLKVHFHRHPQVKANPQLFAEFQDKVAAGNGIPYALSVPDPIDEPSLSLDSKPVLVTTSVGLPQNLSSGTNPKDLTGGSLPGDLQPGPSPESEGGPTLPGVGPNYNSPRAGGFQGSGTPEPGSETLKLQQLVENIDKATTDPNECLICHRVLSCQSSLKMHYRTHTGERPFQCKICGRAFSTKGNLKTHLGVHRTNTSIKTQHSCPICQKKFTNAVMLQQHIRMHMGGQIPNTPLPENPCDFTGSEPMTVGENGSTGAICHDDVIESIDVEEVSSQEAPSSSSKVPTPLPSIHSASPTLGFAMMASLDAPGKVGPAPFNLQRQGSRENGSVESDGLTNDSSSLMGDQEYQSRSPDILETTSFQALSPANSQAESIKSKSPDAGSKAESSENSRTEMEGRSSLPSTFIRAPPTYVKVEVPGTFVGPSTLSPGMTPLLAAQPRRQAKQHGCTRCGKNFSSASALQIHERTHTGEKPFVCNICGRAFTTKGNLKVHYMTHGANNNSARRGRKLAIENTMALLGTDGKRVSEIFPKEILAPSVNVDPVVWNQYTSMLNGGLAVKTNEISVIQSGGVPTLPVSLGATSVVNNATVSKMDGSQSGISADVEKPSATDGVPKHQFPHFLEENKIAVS
Technique: universal PBM
Form: double-stranded DNA, one strand shown
Medium: in vitro
Concentration: 600 nM
Notes: 8-mer, flanks averaged, mean of replicates
Reading: higher = stronger binding
Strand | E-score
CCCTCCAG | -0.273
ACAACGTA | 0.0988
GCTCGCCA | -0.254
CACGTCGC | -0.236
GGGAGGGA | -0.115
TCATTTCA | 0.226
TACCGAGA | -0.0484
CTGAGTTA | 0.021
CGCAAGTA | 0.0693
AAGACGCT | -0.036

Other studies, line by line
Substance | target | assay | test system | setting | scale | quantity | value
PhoQ, residues 284 288 289 292 302 303 WSHMKI | PhoP, residues 12 14 15 18 19 HEGLL (Escherichia coli, UniProt P23836) | Sort-seq, item: YFP reporter | E. coli | PhoQ-PhoP variant library, together with: 10 µM Mg2+ | baseline: high Mg2+ state, higher = stronger signaling | fold induction | 1.24

A few entries again (block 3):
Strand | E-score
CTGAGTTA | 0.021
CGCAAGTA | 0.0693
